Results gathered from unrelated publications.
Every numbered part comes from another study and shows a few of its results, in no order.

Block 1
Target: Prothrombin, mature alpha-thrombin (F2, Homo sapiens, UniProt P00734)
Technique: aptamer microarray, sandwich
Form: DNA with 2'F-ANA
Medium: in vitro
Concentration: 200 nM
Setting: whole 15-mer aptamer, many near background
With: Cy3 exosite-II aptamer, 400 nM
Reading: higher = stronger binding
Sequence: GGTTGGTGTGGTTGG
Modification | mean fluorescence intensity [a.u.]
2'F-ANA at 1 3 5 6 9 10 11 12 13 15 | 54.5
2'F-ANA at 4 6 8 9 10 11 12 14 15 | 57.1
2'F-ANA at 1 7 10 12 14 15 | 54.3
2'F-ANA at 1 2 4 5 9 11 13 14 15 | 50.4
2'F-ANA at 1 2 5 6 8 9 11 12 14 15 | 50.4
2'F-ANA at 1 2 5 11 | 55.9
2'F-ANA at 1 2 3 4 5 6 7 10 11 13 14 15 | 48.7
2'F-ANA at 1 2 5 6 7 8 9 12 14 | 53.6

Block 2
Target: Runt-related transcription factor 3, Runt domain (RUNX3, Homo sapiens, UniProt Q13761, residues 53-186)
UniProt Q13761, sequence (53-186, looked up): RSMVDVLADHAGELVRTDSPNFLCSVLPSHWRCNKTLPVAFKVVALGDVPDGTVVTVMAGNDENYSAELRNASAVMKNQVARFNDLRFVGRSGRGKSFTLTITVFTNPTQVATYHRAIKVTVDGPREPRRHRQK
Technique: protein-binding microarray
Form: hairpin DNA
Medium: in vitro
Concentration: not given
Setting: whole hairpin DNA, median over replicate spots
Relative to: not given
Reading: higher = stronger binding
Sequence | median fluorescence
GAGGCCTGTCGCGGTTGGCCTCCTGGCCAACCGCGACAGGCCTCACACTC (5mC at 32 34) | 5000 a.u.
GAGGCCTGTTGCGCGTGGCCTCCTGGCCACGCGCAACAGGCCTCACACTC (5mC at 14 30) | 5070 a.u.
GAGGCCCAACTGCAACAGCCTCCTGGCTGTTGCAGTTGGGCCTCACACTC | 4690 a.u.
CTCAGTTCTATGGGCTGGACTCCTGTCCAGCCCATAGAACTGAGACACTC | 3820 a.u.
GAGGCCTGTTGTGGGTGGCCTCCTGGCCACCCACAACAGGCCTCACACTC (5mC at 30) | 4940 a.u.
GAGGCCTGTTGCCGTTGGCCTCCTGGCCAACGGCAACAGGCCTCACACTC | 4790 a.u.
GAGGCCTGTTGTGCGTGGCCTCCTGGCCACGCACAACAGGCCTCACACTC (5mC at 30) | 4570 a.u.
GAGGCCTGTCGCGGTTTGCCTCCTGGCAAACCGCGACAGGCCTCACACTC | 6380 a.u.

Block 3
Target: RING finger protein unkempt homolog, zinc fingers 1-6, GST-SBP tag (UNK, Homo sapiens, UniProt Q9C0B0, residues 30-357)
UniProt Q9C0B0, sequence (30-357, looked up): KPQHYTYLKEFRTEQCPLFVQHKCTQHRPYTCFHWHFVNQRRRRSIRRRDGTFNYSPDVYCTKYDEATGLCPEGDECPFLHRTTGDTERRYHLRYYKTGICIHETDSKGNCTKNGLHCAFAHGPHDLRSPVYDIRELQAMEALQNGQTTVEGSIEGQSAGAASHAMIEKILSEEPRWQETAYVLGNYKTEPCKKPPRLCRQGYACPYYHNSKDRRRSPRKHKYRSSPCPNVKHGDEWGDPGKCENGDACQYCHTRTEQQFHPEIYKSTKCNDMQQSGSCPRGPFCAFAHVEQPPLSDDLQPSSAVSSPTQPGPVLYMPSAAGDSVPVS
Technique: RNA Bind-n-Seq
Form: RNA
Medium: in vitro
Concentration: not given
Setting: RNA with constant flanks, ends assumed
Relative to: input RNA pool
Reading: higher = stronger binding
Constant ends, left off below: GGGAGUUCUACAGUCCGACGAUC … CAACAGAGGAUUGAGCAUCA
Sequence | bound/input enrichment
CCGUAUGAAAUGUGUAGUAGUGGUUUAGUCCAGGCACUUCUUACUGUUCUAAACAACCGUACCGAUUUGGAUAUGAAGCAAGAUUGUAGUCAACUGGUAGAAAGAAUAAAUGUCUUCAAA | 1.45 ratio
GUUAGACGUGGCCCUGUAUUUGGAAGUCUCUGACGGGUUGACAGUAUUAACACUCAAUUGCCGUUUACAGUAUUUAUACAUGACAGCCAUACAUGACGCCAAGCCAUGGGUUCUCAGUUU | 0.137 ratio
CAUGUCCAGCUUCUCUAGGGCGCCCCAGCAAUGGGCCACUUUUGCUCGAAUGUGGUAUCUCUCCGAUGGCAAAAUGCAGCCCCCUGGCAAACUUGCGGUUAUAGCAUCCAACAAACUGCA | 0.142 ratio
CUCUAUUUUUUUACUAUGGCUGGCAGUGUAUGGUGGGUAAUUCUUACCAUCACAUGGUUUUCCGCAGCUGUGCCAAAGUGGGGUAGUGAAGCUAUUGAGAAGAAAGCAUUGCUGUUUCAC | 0.202 ratio
UUUAUGAUAGUUUUGUUAGGUGACAGGACCAAAUGAAAAUAUUUUAUGUUUUCUCAUCACUUCCGAUUUUAUCAUUAUGUACAUUACUGGGUUUUUAGCAUUUCCUAAUGUGAAGUUUUA | 1.67 ratio
AUCAUACACUUCCUUCUUUUUUAAAAAAGUUGGGUUUUCUCCAUUCAGGAUUCUGUUCCUCCGGUUUUUUUCCUUCUGAAGUGUUUCACGAGAGCCCGGGAGCUGCUGCCCUGCGGCCCC | 0.276 ratio
UCUGCGCGUGCGCCGGUGGCGGGACUCUGGGGAAAAUGGCUGCGUCUUCGAGUGGGAACUUACCGAAAUGCUGGCAAUUUCAAGAAACCAAAAGUUGUUACAGGCUGGAGAGGAAAACCA | 0.137 ratio
AUAAUGAUGCUUUGCGAGGCUCGAAGAGCAGUUCAGAAGAAUAUGAUAUUUAUUGAUCAAAACCGAGUUAUGCUUAAAUAUCUCUUUCCUUUGAAUGAAAUUGUGGUAGAUUUUUAUGAC | 0.217 ratio

Mixed results
Sequence | target | read-out | form | concentration | measurement | value
DLEKYNLAF | HLA class I histocompatibility antigen, A alpha chain, allele A*25:01 (Homo sapiens, UniProt P04439) | peptide-MHC binding | peptide | concentration not given | binding | inactive

Some of these lines once more (block 1):
Modification | mean fluorescence intensity [a.u.]
2'F-ANA at 1 2 5 6 8 9 11 12 14 15 | 50.4
2'F-ANA at 4 6 8 9 10 11 12 14 15 | 57.1
